Measured values gathered from unrelated publications.
Each line is one published result; not all experiments were run side by side.

SMILES	tested on	test	test system	conditions	how to read	measurement	value
CCN(C(=O)c1cc(F)ccc1Oc1nncnc1N1CCC2(C1)CN([C@H](CCCN(C)CCOC)C(C)C)C2)C(C)C	J82	cell growth or viability	–	72 h	–	GI50	> 10 µM
Cc1ncsc1-c1ccc(C(C)NC(=O)C2CC(O)CN2C(=O)C(NC(=O)CCCCCCCCCCN2CCCC(Nc3ncc(Cl)c(Nc4ccccc4S(=O)(=O)C(C)C)n3)C2)C(C)(C)C)cc1 (stereo not shown)	22Rv1	RNA-seq, refers to: TESMIN mRNA	–	concentration not given	relative to: DMSO	log2 fold change	-1.19
Cn1ncc2cc(-c3cncc(Cl)c3N3CCC4(CCNC4=O)CC3)ccc21	LS174T	gene expression, microarray, refers to: TNFRSF12A mRNA	–	concentration not given, 4 h	relative to: untreated cells	log2 fold change	-1.27
CN1CCCNC(=O)c2cccc(c2)C(=O)NCCCN(C)CCCNc2cccc3c2C(=O)c2cccc(c2C3=O)NCCC1	SAS	RNA-Seq, refers to: LUC7L3 mRNA	–	1 µM, 6 h	relative to: untreated cells	log2 fold change	-1.87
COC1CN([C@H]2CC[C@H]([C@@]3(C)Oc4c(Cl)cc(C(=O)NCc5c(SC)cc(C)[nH]c5=O)c(C)c4O3)CC2)C1	–	RNA-seq, refers to: VLDLR mouse homolog	mouse, HT-1376 xenograft, whole blood	dose not given	relative to: vehicle	log2 fold change	1.22
CC(C)c1ccc(N(C)c2ccc3c(c2)OCC[C@H]3CNc2cnccc2C(=O)O)cc1	NMC-G1	cell growth, CellTiter-Glo	–	7 days	–	IC50	≥ 10 µM
Nc1ncc(-c2cc(-c3cnn(CC(F)(F)F)c3)ncc2F)nc1C(=O)NC1CNCC(F)C1 (stereo not shown)	HASPIN	KINOMEscan	–	1 µM	relative to: DMSO control	remaining binding	57%
C=CC(=O)Nc1cccc(Cn2ncc3cnc(Nc4cnn(CCOC)c4)nc32)c1	NEK10 human	binding, KINOMEscan	–	100 nM	lower = stronger binding	percent of control	91%
CNS(=O)(=O)Nc1nccc(Cc2c(C)c3ccc(Oc4ncccc4F)cc3oc2=O)c1F	OCI-AML2	cell viability	–	7 days	–	IC50	0.000701 µM
c1ccc(-c2n[nH]cc2-c2ccnc3ccccc23)nc1	MKK2 (Candida albicans)	kinase binding, MIB/MS competition	Candida albicans lysate	10 µM	relative to: DMSO	log2 fold change	-0.03

A few entries again:
SMILES	tested on	test	test system	conditions	how to read	measurement	value
Cn1ncc2cc(-c3cncc(Cl)c3N3CCC4(CCNC4=O)CC3)ccc21	LS174T	gene expression, microarray, refers to: TNFRSF12A mRNA	–	concentration not given, 4 h	relative to: untreated cells	log2 fold change	-1.27
